Results of several laboratories.
Parts stem from different laboratories: compare values within a part only.

Sample 1
Target: Protein max, full length (MAX, Homo sapiens, UniProt P61244-2, residues 1-151)
Method: protein-binding microarray
Molecule type: double-stranded DNA, one strand shown
Matrix: in vitro
Tested at: not given
Notes: k-mer, scored over probes, only values ≥0.25
Direction: higher = stronger binding
Strand | E-score
CATGGTCC | 0.337
CACCGTGC | 0.318
ACATGCTG | 0.46
ACACGCTC | 0.36
CCCACACG | 0.35
ATGACACG | 0.37
CACGCTTC | 0.431
CGTGGGTC | 0.362

Sample 2
Target: Probable WRKY transcription factor 33, C-terminal DNA-binding domain (WRKY33, Arabidopsis thaliana, UniProt Q8S8P5, residues 346-449)
Method: DNA-protein interaction ELISA
Molecule type: double-stranded DNA, one strand shown
Matrix: in vitro, bacterial lysate
Tested at: not given
Notes: whole dsDNA probe, crude lysate protein
Baseline: highest signal in screen
Direction: higher = stronger binding
Construct (chain): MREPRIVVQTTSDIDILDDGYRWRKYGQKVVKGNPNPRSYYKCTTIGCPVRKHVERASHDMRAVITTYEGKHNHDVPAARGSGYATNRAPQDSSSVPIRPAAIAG
Strand | relative absorbance
AAAAAACTACAACCTGCGCGGTGGTCAAAA | 37 % of maximum
AAAAAAATCCGATCGATGCATATATAAAA | 37.8 % of maximum
AAAAAATATGCTACTCCACCTTGATGAAAA | 34.1 % of maximum

Sample 3
Structure (SMILES): C[n+]1c2cc(N)ccc2cc2ccc(N)cc21
rep main protease: Replicase polyprotein 1ab, main protease (rep, Severe acute respiratory syndrome coronavirus 2, UniProt P0DTD1)
tested on | assay | test system | setting | inhibition [%]
rep main protease | enzyme activity, inhibitor | – | 20 µM, hit confirmation, with DTT | -1.1
rep main protease | enzyme activity, inhibitor | – | 20 µM, primary screen | 75.2
SARS-CoV-2 | cytopathic effect | Vero E6 | 10 µM | 9.7

Sample 4
Target: Replicase polyprotein 1ab, polymerase (rep, Severe acute respiratory syndrome coronavirus 2, UniProt P0DTD1)
Observed: enzyme activity
Action: inhibitor
Tested at: 20 µM
Structure (SMILES) | inhibition [%]
Cc1ccc2c(Br)cc(Br)c(OC(=O)c3ccccc3)c2n1 | -13.9
c1ccc2c(CC3=NCCN3)cccc2c1 | 14.6
O=C1C2CC=CCC2C(=O)N1SC(Cl)(Cl)Cl (centres unmarked) | 2.85
C[C@H](CSC(=O)c1ccccc1)C(=O)N1C[C@@H](Sc2ccccc2)C[C@H]1C(=O)O | 5.87
Cc1cccc([C@H](C)c2c[nH]cn2)c1C | -6.89
OC[C@@H](O)[C@H]1O[C@@H]2O[C@H](C(Cl)(Cl)Cl)O[C@@H]2[C@H]1O | -5.77
O=C(O)CCNc1cc(N2CCc3ccccc3CC2)nc(-c2ccccn2)n1 | 13.1
O=C(O[C@H]1C[C@H]2CC[C@@H](C1)[N+]21CCCC1)C(O)(c1ccccc1)c1ccccc1 | 1.95
COc1cc([C@@H]2c3cc4c(cc3[C@@H](O[C@@H]3O[C@@H]5CO[C@@H](C)O[C@H]5[C@H](O)[C@H]3O)[C@H]3COC(=O)[C@H]23)OCO4)cc(OC)c1OP(=O)(O)O | 1.17
CC[C@H](Nc1ncnc2[nH]cnc12)c1nc2cccc(F)c2c(=O)n1-c1ccccc1 | -0.5
N=C(N)NCc1cccc(I)c1 | 3.76
c1ccc(CCCN2CCN(CCOC(c3ccccc3)c3ccccc3)CC2)cc1 | 3.54
Nc1nc(=O)[nH]cc1F | -2.45
CCN(CC)C(=O)c1ccc(O)c(OC)c1 | 2.19
CCCCNC(=O)NS(=O)(=O)c1ccc(C)cc1 | 20.1
NC(=O)NC1NC(=O)NC1=O (centres unmarked) | -7.31
N[C@@H]1C[C@H]1c1ccccc1 (racemic) | 18.2
NC1=NCCN1CC(=O)O | -1.41
Fc1ccc(-c2nc(-c3c(F)cccc3F)[nH]c2-c2ccncc2)cc1 | 7.79
CS(=O)(=O)N1CCc2c(-c3cnc(N)nc3)nc(N3CCOCC3)nc21 | -1.85
COc1cccc2c1C(=O)c1c(O)c3c(c(O)c1C2=O)C[C@@](O)(C(=O)CO)C[C@@H]3O[C@H]1C[C@H](N2CCO[C@H](OC)C2)[C@H](O)[C@H](C)O1 | 50.7
CC[C@@H](c1ccc(F)c(F)c1)n1c(C(=O)OC)c(-c2ccno2)[nH]c1=S | 1.88
NC[C@H](CC(=O)O)c1ccc(Cl)cc1 | -3.22
C/C=C/c1cc(OC)c(OC)cc1OC | -0.93
CC(CN(C)C)C(C)(O)Cc1ccc(Cl)cc1 (centres unmarked) | -2.47

Sample 5
Target: Histone acetyltransferase KAT6A, both winged helices, GST fusion (KAT6A, Homo sapiens, UniProt Q92794, residues 1-181)
Method: protein binding microarray
Molecule type: double-stranded DNA, one strand shown
Matrix: in vitro
Tested at: not given
Notes: 8-mer, flanks averaged, mean of 2 arrays, mostly near background
Baseline: not given
Direction: higher = stronger binding
Residues (chain): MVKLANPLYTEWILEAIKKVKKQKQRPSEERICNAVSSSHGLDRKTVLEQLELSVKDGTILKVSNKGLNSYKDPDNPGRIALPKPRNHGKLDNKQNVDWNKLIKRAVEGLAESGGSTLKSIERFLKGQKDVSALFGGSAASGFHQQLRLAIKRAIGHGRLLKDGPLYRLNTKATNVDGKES
Strand | E-score
AAAATCCA | -0.275
CGAACGCC | 0.209
ACACAAAG | -0.084
CATCCCGG | 0.202
ACAGTATA | -0.0699
CTAGGGAA | -0.131
ACAGCTGA | -0.0442
TACGAAGA | -0.0184

Sample 6
Target: PABPC1L2, full length, GST fusion (mouse, UniProt A0ABA7IW68)
Method: RNAcompete
Molecule type: RNA
Matrix: in vitro
Tested at: 20 nM
Notes: 7-mer, probes averaged, single round
Baseline: mean of 7-mers
Direction: higher = stronger binding
Construct (chain): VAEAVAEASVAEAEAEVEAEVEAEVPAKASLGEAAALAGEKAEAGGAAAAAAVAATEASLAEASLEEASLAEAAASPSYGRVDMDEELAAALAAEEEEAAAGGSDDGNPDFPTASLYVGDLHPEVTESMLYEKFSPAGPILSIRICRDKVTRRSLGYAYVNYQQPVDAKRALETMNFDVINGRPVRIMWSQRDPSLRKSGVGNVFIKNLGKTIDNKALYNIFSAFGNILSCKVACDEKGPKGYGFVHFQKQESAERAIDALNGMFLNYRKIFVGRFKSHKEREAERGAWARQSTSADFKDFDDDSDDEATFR
Strand | 7-mer Z-score
GUUCCCC | -0.474
AGAGAGG | 0.285
CAUCCGA | -0.253
CUUUGUC | -0.402
AUCGCCU | -0.42
CUCGUCG | -0.512
AAGAUGU | 0.0986
CGUUCAC | -0.367

Single results of other studies
Compound | cell line | setting | how to read | endpoint | result
CS(=O)(=O)CCNCc1ccc(-c2ccc3ncnc(Nc4ccc(OCc5cccc(F)c5)c(Cl)c4)c3c2)o1 | HEK-293T/ACE2 | concentration not given, 16 (unit not given) | baseline: vehicle | viability | 80%

A few entries again (sample 4):
Structure (SMILES) | inhibition [%]
CC(CN(C)C)C(C)(O)Cc1ccc(Cl)cc1 (centres unmarked) | -2.47
Nc1nc(=O)[nH]cc1F | -2.45
CC[C@H](Nc1ncnc2[nH]cnc12)c1nc2cccc(F)c2c(=O)n1-c1ccccc1 | -0.5
Cc1cccc([C@H](C)c2c[nH]cn2)c1C | -6.89
COc1cc([C@@H]2c3cc4c(cc3[C@@H](O[C@@H]3O[C@@H]5CO[C@@H](C)O[C@H]5[C@H](O)[C@H]3O)[C@H]3COC(=O)[C@H]23)OCO4)cc(OC)c1OP(=O)(O)O | 1.17
Fc1ccc(-c2nc(-c3c(F)cccc3F)[nH]c2-c2ccncc2)cc1 | 7.79
C[C@H](CSC(=O)c1ccccc1)C(=O)N1C[C@@H](Sc2ccccc2)C[C@H]1C(=O)O | 5.87
C/C=C/c1cc(OC)c(OC)cc1OC | -0.93
Cc1ccc2c(Br)cc(Br)c(OC(=O)c3ccccc3)c2n1 | -13.9
